Assay results pooled from the literature.
± gives the spread as reported.

CC(=O)Oc1ccc(Cn2nc(C)c(=O)[nH]c2=O)cc1C1OC(c2cccc(Cl)c2)=NN1C(C)=O (stereo not drawn)
minimum cytotoxic concentration (HEL fibroblasts; cell morphology, microscopy): ≥ 20 µM

CC[C@H](C)[C@H](NC(=O)[C@H](CCCCN)NC(=O)[C@H](C)NC(=O)[C@H](CCCNC(=N)N)NC(=O)[C@H](CCCCN)NC(=O)[C@H](CC(N)=O)NC(=O)[C@H](CCC(N)=O)NC(=O)[C@H](Cc1ccccc1)NC(=O)[C@H](Cc1c[nH]c2ccccc12)NC(=O)[C@@H](NC(=O)[C@H](CCCCN)NC(=O)[C@@H](NC(=O)[C@H](CCC(N)=O)NC(=O)[C@H](CO)NC(=O)[C@H](CC(C)C)NC(=O)[C@H](CCC(N)=O)NC(=O)[C@H](C)NC(=O)[C@H](CCCNC(=N)N)NC(=O)[C@@H](NC(=O)[C@H](Cc1ccccc1)NC(=O)[C@@H](NC(=O)[C@@H](NC(=O)[C@H](CCCNC(=N)N)NC(=O)[C@H](CCC(=O)O)NC(=O)[C@H](CCCNC(=N)N)NC(=O)[C@H](CCCNC(=N)N)NC(=O)[C@H](CCC(N)=O)NC(=O)[C@H](CCCCN)NC(=O)[C@H](CCCNC(=N)N)NC(=O)CNC(=O)CNC(=O)CNC(=O)CNC(=O)CNC(=O)CCCC[C@@H]1SC[C@@H]2NC(=O)N[C@@H]21)[C@@H](C)O)[C@@H](C)O)[C@@H](C)O)[C@@H](C)CC)[C@@H](C)CC)C(=O)N[C@@H](CCCCN)C(=O)N[C@@H](CCCCN)C(N)=O
cellular uptake (CHO pgsA-745 (GAG-deficient); MALDI-TOF MS; 7 µM, 1 h, with: heparin up to 7.2 µg/mL): ~30 pmol

FC(F)(F)c1cccc(Nc2c3c(nc4ccccc24)CCCC3)c1
inhibition (HepG2; MTT; 50 µM, 24 h, 10% FBS): 34.4 ± 1.72%

CC(=O)OC[C@H]1O[C@@H](NC(=O)[C@@H](C)Cc2ccc(C(C)C)cc2)[C@H](OC(C)=O)[C@@H](OC(C)=O)[C@@H]1OC(C)=O
minimal cytotoxic concentration (HEL fibroblasts; cell morphology; 3 days): > 100 µM

O=C1C(O)=C(CN2CCCC2)C(=O)c2ccccc21
median lethal concentration (BGM (monkey kidney); MTT; 10% FCS; 24 h): ≥ 3890 µM

CC=C(C)C(=O)OC1C(O)C2OC(COC(=O)CCC(=O)CCCCCCC(CCCCC)OC3OC(C)C(O)C(O)C3O2)C1OC(=O)C=Cc1ccccc1 (stereo not drawn)
IC50 (MDA-MB-231; cytotoxicity): 0.131 µM

Cc1ccc(C(C)C)cc1.Clc1ccc2c(NCCNCc3ccccn3)ccnc2c1.[Cl-].[Cl][Ru+]
cytotoxicity (CHO; MTT; concentration not given, highest tested concentration): not toxic

CCCCn1cc(C(=O)O)c(=O)c2cc(F)c3c(nnn3-c3cccc(Cl)c3)c21
IC50 (HCT-116; cell growth or viability, SRB): 84.1 µM

N=C(N)NCCC[C@@H]1NC(=O)[C@H](Cc2csc3ccccc23)NC(=O)[C@@H](Cc2ccccc2)NC(=O)[C@H](Cc2ccccc2)NC(=O)[C@H](CCC(=O)NCCOCCOCC(=O)N[C@@H](CCCCNC(=O)c2ccc3c(c2)C(=O)OC32c3ccc4cc(O)ccc4c3Oc3c2ccc2cc(O)ccc32)C(N)=O)NC(=O)[C@@H](CCCNC(=N)N)NC(=O)[C@H](CCCNC(=N)N)NC(=O)[C@@H](CCCNC(=N)N)NC1=O
cellular uptake (HeLa; flow cytometry; 1.0 µM, 2 h, 1% FBS; relative to: CPP12): 88 ± 8%

COc1c(OC(=O)N(C)c2cccc(Cl)c2)cc2oc3cc4c(c(O)c3c(=O)c2c1CC=C(C)C)C=CC(C)(C)O4
inhibition (PC-12; cell proliferation, MTT; 10 µM, 24 h): 0%

CCCN(CCC)CC1=C(O)C(=O)c2ccccc2C1=O
median lethal concentration (BGM (monkey kidney); MTT; 10% FCS; 24 h): 2470 ± 240 µM

CCCCn1cc(C(=O)O)c(=O)c2cc(F)c(Nc3ccccc3Cl)c(N)c21
IC50 (SW-620; cell growth, SRB; 72 h): 22.8 ± 2.76 mg/L

N=C(N)NCCC[C@H]1NC(=O)[C@H](CCCN)NC(=O)[C@@H](Cc2c[nH]cn2)NC(=O)[C@H](Cc2ccc(O)cc2)NC(=O)[C@@H](Cc2ccc(O)cc2)NC(=O)[C@H](Cc2ccccc2)NC(=O)[C@@H](Cc2c[nH]c3ccccc23)NC(=O)[C@H](CO)NC1=O
HD50 (erythrocytes; hemolysis): 98 µM

CC(=O)Oc1ccc(Cn2cc(C)c(=O)[nH]c2=O)cc1C1OC(c2ccccc2)=NN1C(C)=O (stereo not drawn)
minimum cytotoxic concentration (HEL fibroblasts; cell morphology, microscopy): ≥ 100 µM

CCCCn1cc(C(=O)O)c(=O)c2cc(F)c3c(nnn3-c3ccccc3Cl)c21
IC50 (HCT-116; cell growth or viability, SRB): 128 µM

CCNS(=O)(=O)c1ccc(COc2ccc3nc4ccc(=O)cc-4oc3c2)cc1
cell proliferation (MCF-10A; 1 µM): no effect

CC(C)c1ccc(C[C@H](C)C(=O)NC(=O)N[C@@H]2O[C@H](CO)[C@@H](O)[C@H](O)[C@H]2O)cc1
minimal cytotoxic concentration (HEL fibroblasts; cell morphology; 3 days): > 100 µM

N=C(N)NCCC[C@@H](NC(=O)[C@H](N)Cc1c[nH]c2ccccc12)C(=O)N[C@H](CCCCN)C(=O)N[C@H](Cc1c[nH]c2ccccc12)C(=O)N[C@H](CCCNC(=N)N)C(=O)N[C@H](CCCCN)C(=O)N[C@H](Cc1c[nH]c2ccccc12)C(=O)N[C@H](CCCNC(=N)N)C(=O)N[C@H](CCCCN)C(=O)N[C@H](Cc1c[nH]c2ccccc12)C(=O)N[C@H](CCCNC(=N)N)C(=O)N[C@H](CCCCN)C(N)=O
HC10 (mouse red blood cells; 1 h, 37 °C, 8% v/v erythrocytes): > 2050 µM

[Cl-].[Cl-].[Ni+2].c1ccc(CN2CCNCCN(Cc3ccccc3)CCNCC2)cc1
IC90 (THP-1; cytotoxicity): > 20 µM

CC[C@H](C)[C@H](NC(=O)[C@H](CC(C)C)NC(=O)[C@H]1CCCN1C(=O)[C@@H](CO)NC(=O)[C@H](N)CC(C)C)C(=O)N[C@@H](Cc1ccccc1)C(=O)N[C@H](C(=O)N[C@H](C(=O)N[C@H](C(=O)N1CCC[C@H]1C(=O)N[C@@H](CC(=O)O)C(=O)N[C@@H](C(=O)O)[C@H](C)O)[C@@H](C)O)[C@@H](C)O)C(C)C
proliferation (MC38-CCR7-GFP; MTT; concentration not given, 24 to 72 h): no inhibition

CCCCCCCCCCCCCCOc1c(O)cc(C(=O)O[C@@H]2Cc3c(O)cc(O)cc3O[C@@H]2c2cc(O)c(O)c(O)c2)cc1O
cell death (U-87 MG; CCK-8; 50 µM, 24 h): 45.2%

O=C(/C=C/c1ccc(-c2ccccc2)cc1)NC(=O)N[C@@H]1O[C@H](CO)[C@@H](O)[C@H](O)[C@H]1O
minimal cytotoxic concentration (HEL fibroblasts; cell morphology; 3 days): > 100 µM

Clc1ccc2nc3c(c(Nc4ccc5ccccc5n4)c2c1)CCCC3
inhibition (HepG2; MTT; 50 µM, 24 h, 10% FBS): 4.32 ± 0.14%

CCOc1cccc(N(C)C(=O)Oc2cc3oc4cc5c(c(O)c4c(=O)c3c(CC=C(C)C)c2OC)C=CC(C)(C)O5)c1
inhibition (PC-12; cell proliferation, MTT; 10 µM, 24 h): 0%

CC(=O)Oc1ccc(Cn2cc(F)c(=O)[nH]c2=O)cc1C1OC(c2ccc(Cl)cc2)=NN1C(C)=O (stereo not drawn)
minimum cytotoxic concentration (HEL fibroblasts; cell morphology, microscopy): 100 µM

COc1c(OC(=O)N(C)c2ccc(C)cc2)cc2oc3cc4c(c(O)c3c(=O)c2c1CC=C(C)C)C=CC(C)(C)O4
inhibition (PC-12; cell proliferation, MTT; 10 µM, 24 h): 7.8%

CCCCn1cc(C(=O)O)c(=O)c2cc(F)c(Nc3cccc(Cl)c3)c([N+](=O)[O-])c21
IC50 (SW-620; cell growth or viability, SRB): 253 µM

O=C(Cc1nc2cc(Cl)c(Cl)cc2nc1CC(=O)c1cccnc1)c1cccnc1
highest non-cytotoxic concentration (CHO; resazurin; 48 h, 10% FBS): > 200 µg/mL

Cc1cccc(Nc2c3c(nc4ccccc24)CCCC3)n1
inhibition (HepG2; MTT; 50 µM, 24 h, 10% FBS): 6.14 ± 0.23%

CC(C)C1=CC2=C(C=O)C[C@@H]3[C@](C)(CCC[C@@]3(C)C(=O)OCC#CCN3CCCC3)[C@H]2CC1
viability (BHK-21-hACE2; 20.0 µM, 48 (unit not given)): 89.3%

Repeated from above:
O=C1C(O)=C(CN2CCCC2)C(=O)c2ccccc21
median lethal concentration (BGM (monkey kidney); MTT; 10% FCS; 24 h): ≥ 3890 µM

CC=C(C)C(=O)OC1C(O)C2OC(COC(=O)CCC(=O)CCCCCCC(CCCCC)OC3OC(C)C(O)C(O)C3O2)C1OC(=O)C=Cc1ccccc1 (stereo not drawn)
IC50 (MDA-MB-231; cytotoxicity): 0.131 µM

Cc1ccc(C(C)C)cc1.Clc1ccc2c(NCCNCc3ccccn3)ccnc2c1.[Cl-].[Cl][Ru+]
cytotoxicity (CHO; MTT; concentration not given, highest tested concentration): not toxic

CCCCn1cc(C(=O)O)c(=O)c2cc(F)c3c(nnn3-c3cccc(Cl)c3)c21
IC50 (HCT-116; cell growth or viability, SRB): 84.1 µM
